Measurements pooled from the literature.
Protocols differ between the studies behind these lines. Numbers after ± are the reported error.

Compound	organism	test	system	setting	scale	quantity	result
[Cl-].[Cl-].[Pt+2].[Ru+2].c1ccc(-c2nc3ccccc3nc2-c2ccccn2)nc1.c1cnc2c(c1)ccc1cccnc12.c1cnc2c(c1)ccc1cccnc12	Danio rerio		embryos	45 µM, 24 h		survival rate	83.3 ± 1.7%
O=[N+]([O-])c1ccc(N2CCC(NCCC(O)c3ccc(F)c4ccccc34)CC2)c(C(F)(F)F)c1 (stereo not drawn)	Salmonella typhimurium	SOS/umu test	TA1535/pSK1002	0.008 mg/mL, 4 h, with S9, lower range		survival	105%
[Cl-].[Cl-].[Pt+2].[Ru+2].c1ccc(-c2nc3cc4ccccc4cc3nc2-c2ccccn2)nc1.c1cnc2c(c1)ccc1cccnc12.c1cnc2c(c1)ccc1cccnc12	Danio rerio		embryos	30 µM, 24 h		survival rate	90 ± 3.9%
CNC(=O)c1c(N(C)N=O)ncn1C	Salmonella typhimurium	plate incorporation	TA1537, water	1500 µg/plate, without S9		revertant colonies per plate	14 ± 7
COc1cccc(-c2n[nH]c(SCc3ccccn3)n2)c1OC	Escherichia coli	Ames test, preincubation	WP2 uvrA	1.0 mg/plate, with rat liver S9		revertant colonies per plate	16
CC(=O)N1CCC(C(=O)N2CCN3C(=O)c4cc(-c5ccccc5)ccc4NC(=O)C3C2)CC1 (stereo not drawn)	Salmonella typhimurium		TA1537	50 µg/plate, with: rat liver S9	reference: vehicle	fold increase in revertants	1.3
[Cl-].[Cl-].[Pt+2].[Ru+2].c1ccc(-c2nccnc2-c2ccccn2)nc1.c1cnc2c(c1)ccc1cccnc12.c1cnc2c(c1)ccc1cccnc12	Danio rerio		embryos	45 µM, 96 h		survival rate	70 ± 2.8%
O=[N+]([O-])c1ccc(N2CCN(CCC(O)c3ccc(F)cc3)CC2)c(C(F)(F)F)c1 (stereo not drawn)	Salmonella typhimurium	SOS/umu test	TA1535/pSK1002	0.063 mg/mL, 4 h, with S9, lower range		survival	99.2%
Cc1cc(C(=O)NC(C)(C)COc2cccc3c2C(N)=NS(=O)(=O)N3)cc(C)n1	Salmonella typhimurium	Ames test, confirmatory	TA1537	100 µg/plate, with: rat liver S9	reference: solvent control	revertant ratio	0.9

A few entries again:
Compound	organism	test	system	setting	scale	quantity	result
Cc1cc(C(=O)NC(C)(C)COc2cccc3c2C(N)=NS(=O)(=O)N3)cc(C)n1	Salmonella typhimurium	Ames test, confirmatory	TA1537	100 µg/plate, with: rat liver S9	reference: solvent control	revertant ratio	0.9
